Published values of several laboratories.
Lines come from different studies, so protocols differ. Several values in a cell are separate wells, animals, samples, runs or records.
Cell line: MCF7

SMILES | test | conditions | how to read | quantity | value
CC(C)Cc1ccc(C(C)C(=O)[O-])cc1.CC(C)Cc1ccc(C(C)C(=O)[O-])cc1.[Cu+2].c1ccncc1.c1ccncc1 (stereo not shown) | cell growth or viability, MTT | 48 h |  | GI50 | 23 µM
CC1OC2OC3C4=C(OC3(C)C12O)C(=O)c1c(O)cccc1C4=O (stereo not shown) | sulforhodamine B | 10 µg/mL, 48 h | negative means cell kill | growth percent | -90.6%
COc1ccc(CC(=O)N2CCN(CC(OCc3ccc4ccccc4c3)c3ccc(Cl)cc3Cl)CC2)cc1 (stereo not shown) | cell growth or viability, MTT | 24 h |  | IC50 | 23.8 µM
CNC(=S)NCCCC[C@H](NC(=O)CCc1ccccc1)C(=O)N[C@@H](CCCNC(=N)N)C(=O)N[C@@H](CC1CCCCC1)C(=O)N[C@H](CCCCN)C(=O)N[C@@H](CC1CCCCC1)C(=O)N[C@H](CCCNC(=N)N)C(=O)N[C@@H](CC1CCCCC1)C(N)=O | cell growth or viability, MTT | 72 h |  | EC50 | 18.5 µM
CC1CCC2C(C)C(CCCOC(=O)C(Cc3ccc(N(CCCl)CCCl)cc3)NC(=O)OC(C)(C)C)OC3OC4(C)CCC1C32OO4 (stereo not shown) | cell growth or viability, CCK-8 |  |  | IC50 | > 50 µM
CC(C)(C)C(=O)OCOP(=O)(OCOC(=O)C(C)(C)C)C1CCCN(O)C1=O (stereo not shown) |  |  |  | log GI50 | -6.47 log M
CC[C@H](C)[C@H](NC(=O)CNC(=O)[C@H](Cc1ccc(O)cc1)NC(=O)[C@H](CO)NC(=O)[C@H](Cc1ccc(O)cc1)NC(=O)[C@@H](NC(=O)[C@H](CC(=O)O)NC(=O)[C@H](CO)NC(=O)[C@H](CCC(N)=O)NC(=O)[C@H](Cc1ccccc1)NC(=O)[C@H](CO)NC(=O)[C@H](Cc1ccccc1)NC(=O)[C@@H]1CCCN1C(=O)[C@H](CC(N)=O)NC(=O)[C@H](CC(N)=O)NC(=O)[C@H](CC(=O)O)NC(=O)[C@H](CCC(N)=O)NC(=O)[C@@H]1CCCN1C(=O)[C@H](CCCNC(=N)N)NC(=O)[C@H](CCCNC(=N)N)NC(=O)[C@H](CCCNC(=N)N)NC(=O)[C@H](CCC(N)=O)NC(=O)[C@H](CCCNC(=N)N)NC(=O)[C@H](CCCNC(=N)N)NC(=O)[C@H](CCCCN)NC(=O)[C@H](CCCCN)NC(=O)[C@H](CCCNC(=N)N)NC(=O)CN)C(C)C)C(=O)N[C@H](C(=O)N[C@@H](CC(C)C)C(N)=O)C(C)C | immunoblot densitometry, measured: phospho-c-Raf Ser338 | 20 µM, 48 h, unit not given | baseline: 0 µM | phospho-c-Raf level | 0.192 and 0.254
Cc1ccc2c(Br)cc(Br)c([O-])c2n1.Cc1ccc2c(Br)cc(Br)c([O-])c2n1.[Co+2].c1cnc2c(c1)c1nccnc1c1cccnc12 | cell growth or viability, MTT | 48 h |  | IC50 | 6.99 µM
O=C(N[C@H](Cc1ccccc1)C(=O)N[C@H](Cc1ccccc1)C(=O)N[C@@H](Cc1ccc(OP(=O)(O)O)cc1)C(=O)O)OCC1c2ccccc2-c2ccccc21 | mitochondrial membrane potential, flow cytometry | 10 µM, 48 h |  | high-TMRM cells | 91.5%
Cc1cc(Oc2nc(N3CC[C@@H](c4ccncc4)C3)ncc2F)[nH]n1 | cell growth or viability |  |  | IC50 | 32.4 µM
Cc1ccc(CC(=O)N2CCN(CC(OCc3ccc4ccccc4c3)c3ccc(Cl)cc3Cl)CC2)cc1 (stereo not shown) | cell growth or viability, MTT | 24 h |  | IC50 | 29.3 µM
C[C@H]1[C@H](OC(=O)CCC(=O)OCCC2CCN(CC(=O)Nc3ccc([N+](=O)[O-])c(C(F)(F)F)c3)CC2)O[C@@H]2O[C@@]3(C)CC[C@H]4[C@H](C)CC[C@@H]1[C@@]24OO3 | cell growth or viability, CCK-8 |  |  | IC50 | > 50 µM
Cc1ccc(C(C)C)cc1.F[P-](F)(F)(F)(F)F.[Cl][Os+]1[N]2C=CC=c3ccc4c(c32)[N]1C=CC=4 | cell growth or viability, MTT |  |  | IC50 | 73.1 µM
